Assay results from different studies.
Each numbered part is a random draw from the data of one study; scales do not carry over between parts.
Chain of UniProt P32298 (whole entry, looked up): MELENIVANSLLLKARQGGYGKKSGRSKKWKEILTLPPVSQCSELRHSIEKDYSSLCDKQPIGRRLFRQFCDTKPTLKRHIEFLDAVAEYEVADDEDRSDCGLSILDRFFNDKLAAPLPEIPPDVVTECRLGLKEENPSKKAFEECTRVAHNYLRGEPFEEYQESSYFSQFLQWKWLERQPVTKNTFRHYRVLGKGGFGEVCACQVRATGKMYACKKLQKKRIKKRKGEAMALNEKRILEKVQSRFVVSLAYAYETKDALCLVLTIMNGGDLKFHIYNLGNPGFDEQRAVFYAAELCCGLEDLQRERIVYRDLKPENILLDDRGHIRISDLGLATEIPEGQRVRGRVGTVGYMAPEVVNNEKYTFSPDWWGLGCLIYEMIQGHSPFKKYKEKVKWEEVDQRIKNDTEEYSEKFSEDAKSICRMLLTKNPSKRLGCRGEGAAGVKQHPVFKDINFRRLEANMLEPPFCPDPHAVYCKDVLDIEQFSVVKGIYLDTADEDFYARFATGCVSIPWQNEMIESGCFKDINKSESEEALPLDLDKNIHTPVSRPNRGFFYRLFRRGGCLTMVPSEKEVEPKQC
Chain of UniProt P51956 (whole entry, looked up): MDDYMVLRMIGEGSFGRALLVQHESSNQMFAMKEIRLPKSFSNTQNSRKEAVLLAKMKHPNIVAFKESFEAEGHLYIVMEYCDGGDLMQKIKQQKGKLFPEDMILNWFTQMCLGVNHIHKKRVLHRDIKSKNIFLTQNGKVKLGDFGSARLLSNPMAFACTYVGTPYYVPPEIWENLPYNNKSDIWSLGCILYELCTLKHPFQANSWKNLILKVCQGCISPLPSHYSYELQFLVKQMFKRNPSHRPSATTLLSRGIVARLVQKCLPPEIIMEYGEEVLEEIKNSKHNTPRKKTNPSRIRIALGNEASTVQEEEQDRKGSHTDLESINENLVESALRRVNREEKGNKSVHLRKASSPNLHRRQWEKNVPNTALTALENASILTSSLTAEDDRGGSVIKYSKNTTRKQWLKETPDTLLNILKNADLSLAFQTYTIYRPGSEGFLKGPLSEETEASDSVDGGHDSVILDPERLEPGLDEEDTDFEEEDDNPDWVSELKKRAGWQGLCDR
Chain of UniProt Q8IW41 (whole entry, looked up): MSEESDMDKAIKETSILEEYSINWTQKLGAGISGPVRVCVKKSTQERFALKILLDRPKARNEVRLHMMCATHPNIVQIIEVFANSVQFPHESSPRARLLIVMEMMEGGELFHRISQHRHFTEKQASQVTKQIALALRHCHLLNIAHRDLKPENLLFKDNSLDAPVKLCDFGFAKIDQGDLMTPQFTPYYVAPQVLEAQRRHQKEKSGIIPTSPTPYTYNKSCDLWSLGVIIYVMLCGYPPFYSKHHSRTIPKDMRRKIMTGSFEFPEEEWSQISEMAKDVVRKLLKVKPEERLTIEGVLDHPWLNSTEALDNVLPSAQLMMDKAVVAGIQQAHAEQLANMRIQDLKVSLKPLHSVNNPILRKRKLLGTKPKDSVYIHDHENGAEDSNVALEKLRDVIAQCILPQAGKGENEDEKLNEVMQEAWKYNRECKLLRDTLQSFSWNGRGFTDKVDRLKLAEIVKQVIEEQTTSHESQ
Chain of UniProt P11802 (whole entry, looked up): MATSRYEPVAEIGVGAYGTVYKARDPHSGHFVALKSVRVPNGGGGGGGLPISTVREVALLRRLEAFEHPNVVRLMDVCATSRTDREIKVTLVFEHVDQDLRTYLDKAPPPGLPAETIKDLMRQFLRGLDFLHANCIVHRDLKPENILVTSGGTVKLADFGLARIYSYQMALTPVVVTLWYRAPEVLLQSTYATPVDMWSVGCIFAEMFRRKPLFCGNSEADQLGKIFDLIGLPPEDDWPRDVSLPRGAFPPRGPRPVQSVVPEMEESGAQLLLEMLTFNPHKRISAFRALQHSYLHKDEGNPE
Chain of UniProt Q15759 (whole entry, looked up): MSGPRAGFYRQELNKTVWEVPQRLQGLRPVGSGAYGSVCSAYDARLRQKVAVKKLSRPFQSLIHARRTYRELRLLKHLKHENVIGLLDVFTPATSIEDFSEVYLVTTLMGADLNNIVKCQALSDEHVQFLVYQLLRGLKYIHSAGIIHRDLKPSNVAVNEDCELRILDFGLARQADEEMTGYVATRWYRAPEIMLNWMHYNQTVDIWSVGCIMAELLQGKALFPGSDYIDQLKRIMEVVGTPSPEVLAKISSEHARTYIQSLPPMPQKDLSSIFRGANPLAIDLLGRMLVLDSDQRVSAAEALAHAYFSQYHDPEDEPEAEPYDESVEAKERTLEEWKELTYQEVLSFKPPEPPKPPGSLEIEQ
Chain of UniProt Q13237 (whole entry, looked up): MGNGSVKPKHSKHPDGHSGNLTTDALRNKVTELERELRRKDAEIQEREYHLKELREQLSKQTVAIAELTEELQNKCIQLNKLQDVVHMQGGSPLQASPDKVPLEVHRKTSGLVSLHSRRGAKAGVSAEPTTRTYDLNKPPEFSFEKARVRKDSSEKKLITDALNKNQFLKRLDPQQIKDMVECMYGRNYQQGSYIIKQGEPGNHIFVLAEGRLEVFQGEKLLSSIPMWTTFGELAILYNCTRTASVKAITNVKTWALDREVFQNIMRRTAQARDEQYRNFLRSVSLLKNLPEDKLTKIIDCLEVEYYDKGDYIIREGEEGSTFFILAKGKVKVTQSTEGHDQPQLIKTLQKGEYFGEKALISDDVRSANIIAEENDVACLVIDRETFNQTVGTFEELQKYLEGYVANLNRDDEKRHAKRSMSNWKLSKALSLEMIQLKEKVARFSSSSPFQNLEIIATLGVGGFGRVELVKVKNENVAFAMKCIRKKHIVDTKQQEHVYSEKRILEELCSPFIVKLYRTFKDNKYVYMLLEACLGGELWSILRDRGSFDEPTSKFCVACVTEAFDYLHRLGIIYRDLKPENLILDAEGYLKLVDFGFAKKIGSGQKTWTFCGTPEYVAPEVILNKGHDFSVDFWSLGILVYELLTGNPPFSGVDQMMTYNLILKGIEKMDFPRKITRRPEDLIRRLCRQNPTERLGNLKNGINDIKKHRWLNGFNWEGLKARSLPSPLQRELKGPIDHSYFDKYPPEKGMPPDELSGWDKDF
Chain of UniProt Q6XUX3 (whole entry, looked up): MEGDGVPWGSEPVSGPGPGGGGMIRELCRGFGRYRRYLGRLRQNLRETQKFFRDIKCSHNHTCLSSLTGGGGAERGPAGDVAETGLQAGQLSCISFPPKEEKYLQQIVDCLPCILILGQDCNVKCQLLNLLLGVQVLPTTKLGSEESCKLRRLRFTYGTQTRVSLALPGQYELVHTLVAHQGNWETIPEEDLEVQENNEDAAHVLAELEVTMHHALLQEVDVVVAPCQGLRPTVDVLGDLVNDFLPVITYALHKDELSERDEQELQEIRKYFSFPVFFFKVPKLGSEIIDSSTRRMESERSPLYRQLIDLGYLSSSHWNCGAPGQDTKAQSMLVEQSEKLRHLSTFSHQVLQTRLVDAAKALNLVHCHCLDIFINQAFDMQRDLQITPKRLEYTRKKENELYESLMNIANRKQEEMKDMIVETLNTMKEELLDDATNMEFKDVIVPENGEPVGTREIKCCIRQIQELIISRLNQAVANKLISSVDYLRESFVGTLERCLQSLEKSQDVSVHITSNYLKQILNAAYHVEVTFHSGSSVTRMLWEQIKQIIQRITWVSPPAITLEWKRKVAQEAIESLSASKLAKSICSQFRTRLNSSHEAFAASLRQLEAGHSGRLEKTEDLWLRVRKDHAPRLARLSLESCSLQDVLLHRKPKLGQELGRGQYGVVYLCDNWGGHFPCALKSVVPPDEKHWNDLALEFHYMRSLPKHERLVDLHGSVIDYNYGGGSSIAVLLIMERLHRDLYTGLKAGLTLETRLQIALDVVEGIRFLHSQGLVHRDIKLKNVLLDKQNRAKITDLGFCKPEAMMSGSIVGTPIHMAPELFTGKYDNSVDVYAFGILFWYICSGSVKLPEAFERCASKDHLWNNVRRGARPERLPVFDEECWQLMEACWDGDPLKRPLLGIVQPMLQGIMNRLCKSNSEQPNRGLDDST
Chain of UniProt Q6P2M8 (whole entry, looked up): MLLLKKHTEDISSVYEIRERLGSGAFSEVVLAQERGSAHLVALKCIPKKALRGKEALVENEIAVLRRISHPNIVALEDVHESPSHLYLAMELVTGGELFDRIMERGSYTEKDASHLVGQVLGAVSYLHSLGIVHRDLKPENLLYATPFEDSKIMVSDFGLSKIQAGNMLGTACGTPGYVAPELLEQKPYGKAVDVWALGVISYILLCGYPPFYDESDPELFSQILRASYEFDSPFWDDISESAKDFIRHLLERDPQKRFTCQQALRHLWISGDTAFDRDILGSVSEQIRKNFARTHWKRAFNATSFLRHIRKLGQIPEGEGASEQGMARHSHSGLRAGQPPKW
Chain of UniProt P31751 (whole entry, looked up): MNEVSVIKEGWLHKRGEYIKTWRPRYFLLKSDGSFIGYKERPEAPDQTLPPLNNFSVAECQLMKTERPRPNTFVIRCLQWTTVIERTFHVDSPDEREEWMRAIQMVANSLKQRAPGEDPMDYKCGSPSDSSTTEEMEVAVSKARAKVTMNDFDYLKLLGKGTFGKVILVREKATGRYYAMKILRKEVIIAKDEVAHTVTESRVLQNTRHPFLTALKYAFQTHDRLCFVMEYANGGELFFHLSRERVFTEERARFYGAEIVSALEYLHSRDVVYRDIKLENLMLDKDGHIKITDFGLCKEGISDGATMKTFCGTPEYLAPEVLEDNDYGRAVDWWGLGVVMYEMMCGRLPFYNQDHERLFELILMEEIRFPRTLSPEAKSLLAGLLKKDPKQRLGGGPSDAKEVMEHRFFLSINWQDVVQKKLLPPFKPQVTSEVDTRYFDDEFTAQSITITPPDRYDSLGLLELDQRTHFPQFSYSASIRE

Series 1 — observed: enzyme activity; action: inhibitor; tested at: 0.5 µM; relative to: control
Compound: O=C(NC(NC(=S)Nc1ccc(F)c([N+](=O)[O-])c1)C(Cl)(Cl)Cl)C(c1ccccc1)c1ccccc1 (centres unmarked)
PNCK (Homo sapiens, UniProt Q6P2M8) — remaining activity: 115%.
For CLK4 (Homo sapiens, UniProt Q9HAZ1): remaining activity read 105%.
PRKG2 (Homo sapiens, UniProt Q13237) — remaining activity: 96.7%.
It gave 96.2% for remaining activity (NEK3 (Homo sapiens, UniProt P51956)).
The remaining activity was 92.3% (MARK2 (Homo sapiens, UniProt Q7KZI7)).
AKT2 (Homo sapiens, UniProt P31751) — remaining activity: 91.6%.
Cyclin-dependent kinase 9, with cyclin K (CDK9, Homo sapiens, UniProt P50750) — remaining activity: 110%.
MAPK14 (Homo sapiens, UniProt Q16539) — remaining activity: 101%.
MAPK11 (Homo sapiens, UniProt Q15759) — remaining activity: 104%.
It gave 101% for remaining activity (MET (Homo sapiens, UniProt P08581)).
The remaining activity was 99.8% (ROCK1 (Homo sapiens, UniProt Q13464)).
The remaining activity was 101% (GRK4 (Homo sapiens, UniProt P32298)).
It gave 92.5% for remaining activity (KDR (Homo sapiens, UniProt P35968)).
It gave 96.4% for remaining activity (DDR2 (Homo sapiens, UniProt Q16832)).

Series 2 — observed: cell-free assay; technique: competition with immobilised ligand; tested at: 1 µM
Compound: O=C(NC[C@@H]1[C@H]2CN(C(=O)OCc3cc(C(F)(F)F)cc(C(F)(F)F)c3)C[C@@H]12)c1ccc2[nH]nnc2c1
It gave 84% for remaining binding (Aurora kinase B (AURKB, Homo sapiens, UniProt Q96GD4)).
MAPKAPK5 (Homo sapiens, UniProt Q8IW41) — remaining binding: 86%.
The remaining binding was 82% (DSTYK (Homo sapiens, UniProt Q6XUX3)).
It gave 100% for remaining binding (IKBKE (Homo sapiens, UniProt Q14164)).
Cyclin-dependent kinase 4, with cyclin D3 (CDK4, Homo sapiens, UniProt P11802) — remaining binding: 97%.

Series 3 — cell line: HaCaT; tested at: 100 µM; time: 18 h
With CN[C@@H]1[C@@H](O[C@H]2O[C@H](CO)[C@@H](N)[C@H](O)[C@H]2O)O[C@H]2C[C@@H](N)[C@@H](O[C@H]3[C@H](O)[C@@H](O)[C@H](N)C[C@@H]3N)O[C@@H]2[C@@H]1O the viability was 110%.
For COc1ccc(CN(CCN(C)C)c2ccccn2)cc1, the viability was 100%.
COc1cc(S(=O)(=O)O)ccc1O has a viability of 111%.
CC(C)C(=O)c1c(C(C)C)nn2ccccc12 has a viability of 82.8%.
Cc1cccc(C)c1NC(=O)c1ccccc1C(=O)O gave a viability of 99.3%.
OC(CCN1CCCCC1)(c1ccccc1)C1C[C@@H]2C=C[C@H]1C2 (some centres unmarked) gave a viability of 66.9%.

Series 4 — cell line: mouse MPNST tumor cells; technique: high-content nuclear imaging; measured: cell number; tested at: 10 µM; time: 12 h; notes: mean of 2 replicates; relative to: plate mean; direction: higher = more cells
With Cc1c(-c2ccc(-c3ccccc3F)cc2)nc2ccc(F)cc2c1C(=O)O the nuclei count was -1.26 z-score.
The nuclei count of CCOC(=O)O[C@]1(C(=O)OCCl)CC[C@H]2[C@@H]3CCC4=CC(=O)C=C[C@]4(C)[C@H]3[C@@H](O)C[C@@]21C is reported as 1.38 z-score.
CCCCC(CC)CN1CN(CC(CC)CCCC)CC(C)(N)C1 (centres unmarked) gave a nuclei count of -0.279 z-score.
Nc1ncnc2c1ncn2C1OC(COP(=O)(O)O)C(O)C1O (centres unmarked) gave a nuclei count of 0.0011 z-score.

For quick reference, copied from above (series 4):
With Cc1c(-c2ccc(-c3ccccc3F)cc2)nc2ccc(F)cc2c1C(=O)O the nuclei count was -1.26 z-score.
The nuclei count of CCOC(=O)O[C@]1(C(=O)OCCl)CC[C@H]2[C@@H]3CCC4=CC(=O)C=C[C@]4(C)[C@H]3[C@@H](O)C[C@@]21C is reported as 1.38 z-score.
CCCCC(CC)CN1CN(CC(CC)CCCC)CC(C)(N)C1 (centres unmarked) gave a nuclei count of -0.279 z-score.
Nc1ncnc2c1ncn2C1OC(COP(=O)(O)O)C(O)C1O (centres unmarked) gave a nuclei count of 0.0011 z-score.
